Assay results gathered from unrelated publications.
Values joined by “and” are separate records of one study, mostly repeats; a detail may differ. Numbers after ± are the reported error.
ALB: Albumin (ALB, Homo sapiens, UniProt P02768)
ABCB1: ATP-dependent translocase ABCB1 (ABCB1, Homo sapiens, UniProt P08183)
UniProt P11712, sequence (whole entry, looked up): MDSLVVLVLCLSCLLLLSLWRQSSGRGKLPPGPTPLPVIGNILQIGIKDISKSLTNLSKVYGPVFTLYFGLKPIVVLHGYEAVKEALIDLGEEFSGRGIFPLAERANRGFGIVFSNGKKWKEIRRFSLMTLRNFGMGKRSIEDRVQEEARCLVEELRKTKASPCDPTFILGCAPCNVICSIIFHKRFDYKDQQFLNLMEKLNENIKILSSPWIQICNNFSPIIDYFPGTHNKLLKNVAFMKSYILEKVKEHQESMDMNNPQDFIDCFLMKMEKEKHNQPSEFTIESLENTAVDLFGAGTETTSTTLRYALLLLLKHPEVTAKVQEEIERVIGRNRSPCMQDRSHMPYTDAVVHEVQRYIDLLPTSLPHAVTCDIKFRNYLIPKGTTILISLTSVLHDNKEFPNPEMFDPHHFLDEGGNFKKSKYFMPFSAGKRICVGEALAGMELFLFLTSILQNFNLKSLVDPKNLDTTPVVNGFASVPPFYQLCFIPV
UniProt P08183, sequence (whole entry, looked up): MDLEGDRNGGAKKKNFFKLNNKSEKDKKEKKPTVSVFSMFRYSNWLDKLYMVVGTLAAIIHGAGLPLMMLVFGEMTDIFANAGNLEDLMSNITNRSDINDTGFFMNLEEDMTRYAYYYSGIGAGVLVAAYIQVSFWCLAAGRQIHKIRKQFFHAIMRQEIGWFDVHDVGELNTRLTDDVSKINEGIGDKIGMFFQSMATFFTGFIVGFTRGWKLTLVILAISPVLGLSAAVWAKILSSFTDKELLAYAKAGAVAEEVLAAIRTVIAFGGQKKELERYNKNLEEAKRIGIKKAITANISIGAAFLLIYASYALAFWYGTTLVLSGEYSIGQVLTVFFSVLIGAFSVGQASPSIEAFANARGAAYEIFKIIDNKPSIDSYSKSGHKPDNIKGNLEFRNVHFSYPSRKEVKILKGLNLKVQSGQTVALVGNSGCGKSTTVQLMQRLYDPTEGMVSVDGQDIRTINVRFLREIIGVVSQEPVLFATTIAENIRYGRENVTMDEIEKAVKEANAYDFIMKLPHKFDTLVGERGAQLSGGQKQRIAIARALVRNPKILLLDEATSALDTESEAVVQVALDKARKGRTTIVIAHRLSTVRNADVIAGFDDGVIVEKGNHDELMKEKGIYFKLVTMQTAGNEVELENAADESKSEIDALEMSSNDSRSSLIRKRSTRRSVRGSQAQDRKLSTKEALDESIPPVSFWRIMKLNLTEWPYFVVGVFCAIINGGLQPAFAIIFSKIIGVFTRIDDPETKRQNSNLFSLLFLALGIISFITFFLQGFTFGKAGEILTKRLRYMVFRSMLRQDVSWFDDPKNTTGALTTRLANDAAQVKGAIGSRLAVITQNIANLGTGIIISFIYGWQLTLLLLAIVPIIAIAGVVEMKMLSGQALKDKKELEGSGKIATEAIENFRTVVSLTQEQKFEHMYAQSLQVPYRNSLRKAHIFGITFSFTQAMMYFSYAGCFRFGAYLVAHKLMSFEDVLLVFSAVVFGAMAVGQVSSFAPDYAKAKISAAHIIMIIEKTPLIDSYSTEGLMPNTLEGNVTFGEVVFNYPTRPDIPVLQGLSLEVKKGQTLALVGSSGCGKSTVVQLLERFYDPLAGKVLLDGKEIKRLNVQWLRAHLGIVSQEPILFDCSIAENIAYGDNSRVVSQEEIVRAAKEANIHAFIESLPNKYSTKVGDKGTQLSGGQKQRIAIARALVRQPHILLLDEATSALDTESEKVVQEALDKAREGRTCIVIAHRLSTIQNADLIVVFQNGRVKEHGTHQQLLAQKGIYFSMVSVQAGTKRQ
UniProt P27487, sequence (whole entry, looked up): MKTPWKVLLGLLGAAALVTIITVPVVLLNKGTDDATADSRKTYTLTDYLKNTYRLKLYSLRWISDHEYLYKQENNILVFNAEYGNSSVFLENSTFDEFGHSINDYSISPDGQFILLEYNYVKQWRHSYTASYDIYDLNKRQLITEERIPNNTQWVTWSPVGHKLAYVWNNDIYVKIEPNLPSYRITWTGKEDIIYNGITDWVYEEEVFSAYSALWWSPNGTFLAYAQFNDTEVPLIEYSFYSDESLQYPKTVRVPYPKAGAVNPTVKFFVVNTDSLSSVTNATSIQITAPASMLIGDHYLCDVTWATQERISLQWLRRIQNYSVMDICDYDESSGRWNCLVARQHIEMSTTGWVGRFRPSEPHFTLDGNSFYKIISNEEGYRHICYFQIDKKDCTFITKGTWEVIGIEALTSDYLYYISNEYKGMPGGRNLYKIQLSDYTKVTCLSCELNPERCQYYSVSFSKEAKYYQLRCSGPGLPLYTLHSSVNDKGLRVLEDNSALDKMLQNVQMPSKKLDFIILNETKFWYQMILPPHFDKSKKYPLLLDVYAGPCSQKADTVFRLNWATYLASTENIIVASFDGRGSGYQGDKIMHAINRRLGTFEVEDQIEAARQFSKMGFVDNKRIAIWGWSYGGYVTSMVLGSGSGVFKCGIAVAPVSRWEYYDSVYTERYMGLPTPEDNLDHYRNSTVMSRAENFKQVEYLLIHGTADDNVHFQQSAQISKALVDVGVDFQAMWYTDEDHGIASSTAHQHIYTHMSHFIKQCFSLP

CN1CCN(c2ccc3[nH]c(-c4ccc5[nH]c(-c6ccc(OCCCCNC(=O)c7ccc8c(c7)C(=O)OC87c8ccc(N(C)C)cc8[Si](C)(C)c8cc(N(C)C)ccc87)cc6)nc5c4)nc3c2)CC1  fluorescence quantum yield (ALB; PBS; 1 µM, 1 h, together with: 25 mg/mL albumin): 0.079 ± 0.007
CNC(=O)C1CCCN(C(=O)C2CC3CCC2N3C(=O)[C@@H]2C[C@@H](O)CN2C(=O)NCc2cccc(Cl)c2F)C1 (mixture of isomers)  remaining activity (Cytochrome P450 2C9 (CYP2C9, Homo sapiens, UniProt P11712); preincubation with NADPH; human; 0.206 µM; baseline: negative control): 99.4% and 101% and 122%
CNc1nc(N)nc2c1ncn2[C@@H]1O[C@H](CO[P@](=O)(O)N[C@@H](C)C(=O)O)[C@@H](O)[C@@]1(C)F  Papp B to A (ABCB1; bidirectional transport; LLC-PK1, human MDR1, transfected with; 10 µM, together with: zosuquidar 1 µM): 6.08 ± 0.57 ×10⁻⁶ cm/s
C/C(N)=N/C(=N\S(=O)(=O)c1ccc(C(F)(F)F)cc1)N1C[C@H](c2ccccc2)C(c2ccc(Cl)cc2)=N1  Papp B-A (ABCB1; MDCK-MDR1 monolayers; 5 µM, 120 min, pH 7.4): 37.2 ×10⁻⁶ cm/s
CN1CCN(c2ccc3[nH]c(-c4ccc5[nH]c(-c6ccc(OCCCCNC(=O)c7cccc8c7C(=O)OC87c8ccc(N(C)C)cc8C(C)(C)c8cc(N(C)C)ccc87)cc6)nc5c4)nc3c2)CC1  fluorescence quantum yield (ALB; PBS; 1 µM, 1 h, together with: 25 mg/mL albumin): 0.092 ± 0.002
CC[C@H](C)[C@H](NC(=O)[C@H](Cc1ccccc1)NC(=O)[C@H](CCC(=O)O)NC(=O)[C@H](CCCCN)NC(=O)[C@H](C)NC(=O)[C@H](C)NC(=O)[C@H](CCC(N)=O)NC(=O)CNC(=O)[C@H](CCC(=O)O)NC(=O)[C@H](CC(C)C)NC(=O)[C@H](Cc1ccc(O)cc1)NC(=O)[C@H](CO)NC(=O)[C@H](CO)NC(=O)[C@@H](NC(=O)[C@H](CC(=O)O)NC(=O)[C@H](CO)NC(=O)[C@@H](NC(=O)[C@H](Cc1ccccc1)NC(=O)[C@@H](NC(=O)CNC(=O)[C@H](CCC(=O)O)NC(=O)[C@H](C)NC(=O)[C@@H](N)Cc1c[nH]cn1)[C@@H](C)O)[C@@H](C)O)C(C)C)C(=O)N[C@@H](C)C(=O)N[C@@H](Cc1c[nH]c2ccccc12)C(=O)N[C@@H](CC(C)C)C(=O)N[C@H](C(=O)N[C@@H](CCCNC(=N)N)C(=O)NCC(=O)N[C@@H](CCCNC(=N)N)C(=O)NCC(=O)O)C(C)C  remaining peptide (Dipeptidyl peptidase 4 (DPP4, Homo sapiens, UniProt P27487); HPLC-UV; Tris-HCl; 0.1 mM, 1 h, pH 7.4, 37 °C, together with: DPP4 16 nM): 9.2%
Cc1ccc(NC(=O)NCc2ccc3c(c2)CN(C2CCC(=O)NC2=O)C3=O)cc1Cl (centres unmarked)  fraction unbound (ALB; equilibrium dialysis; human serum albumin 50 mg/mL; 6 h, 37 °C): 0.005
C[C@@]1(F)[C@H](O)[C@@H](CO)O[C@H]1n1cnc2c(=O)[nH]c(N)nc21  Papp B to A (ABCB1; bidirectional transport; LLC-PK1, human MDR1, transfected with; 10 µM, together with: zosuquidar 1 µM): 11.9 ± 0.6 ×10⁻⁶ cm/s
Cc1cc(C(=O)N[C@@H](CC(=O)NC(C)(C)C)C(=O)NCCNC(=O)c2cccc(-n3cccn3)c2)no1  apparent permeability (ABCB1; ABCB1-expressing cell monolayer; 10 µM, apical to basolateral): 0.1 ×10⁻⁶ cm/s
CN1CCN(c2ccc3[nH]c(-c4ccc5[nH]c(-c6ccc(OCCCCNC(=O)c7ccc8c(c7)C(=O)OC87c8ccc(N(C)C)cc8C(C)(C)c8cc(N(C)C)ccc87)cc6)nc5c4)nc3c2)CC1  fluorescence quantum yield (ALB; PBS; 1 µM, 1 h, together with: 25 mg/mL albumin): 0.172 ± 0.003
C=CC(=O)Nc1cc(Nc2nccc(-c3cn(C)c4ccccc34)n2)c(OCC(F)(F)F)nc1N(C)CCN(C)C  relative enzyme activity (CYP1A2 human; inducer; hepatocytes lot LTG; 10 µM; baseline: DMSO): 17.7
